Results collected from several papers.
Parts stem from different laboratories: compare values within a part only.

Study 1 — method: aptamer microarray, sandwich; form: DNA with 2'F-ANA; sample: in vitro; concentration: 200 nM; with: Cy3 exosite-II aptamer, 400 nM; reading: higher = stronger binding; oligonucleotide: GGTTGGTGTGGTTGG
Target: Prothrombin, mature alpha-thrombin (F2, Homo sapiens, UniProt P00734)
Setting: whole 15-mer aptamer, many near background
Modification	mean fluorescence intensity
2'F-ANA at 1 3 4 7 8 12 15	562 a.u.
2'F-ANA at 3 4 5 7 8 9 12 13	142 a.u.
2'F-ANA at 6 7 9 10 11 12 15	190 a.u.
2'F-ANA at 2 3 4 5 6 8 9 11 12 13 15	105 a.u.
2'F-ANA at 1 3 7 8 10 11 12 13 14 15	66.8 a.u.
2'F-ANA at 1 2 3 5 6 8	227 a.u.
2'F-ANA at 2 4 6 8 9 11 12 14 15	98.3 a.u.
2'F-ANA at 1 2 4 5 11 12 13 14 15	51.3 a.u.
2'F-ANA at 4 5 6 7 8 12 14 15	49.7 a.u.
2'F-ANA at 3 8 10 11 15	492 a.u.
2'F-ANA at 2 3 6 8 11 13 15	569 a.u.
2'F-ANA at 6 8	609 a.u.
2'F-ANA at 4 5 6 7 8 9 10 12 15	50.2 a.u.
2'F-ANA at 4 5 7 9 11 13 15	50.9 a.u.
2'F-ANA at 1 2 4 6 9 12 13 14 15	52.6 a.u.
2'F-ANA at 1 2 4 5 7 10 11 12 14	48.1 a.u.
2'F-ANA at 2 8 10 12 14	88.5 a.u.
2'F-ANA at 1 3 4 9 10 13	59 a.u.
2'F-ANA at 1 3 6 9 10 11 12 14	61.5 a.u.
2'F-ANA at 1 2 3 4 5 6 7 8 9 12 13	102 a.u.
2'F-ANA at 6 7 8 11 13 14 15	180 a.u.

Study 2 — method: RNA Bind-n-Seq; form: RNA; sample: in vitro; concentration: not given; baseline: input RNA pool; reading: higher = stronger binding
Target: RING finger protein unkempt homolog, zinc fingers 1-6, GST-SBP tag (UNK, Homo sapiens, UniProt Q9C0B0, residues 30-357)
Setting: RNA with constant flanks, human and mouse sites, ends assumed
Constant ends, left off below: GGGAGUUCUACAGUCCGACGAUC … CAACAGAGGAUUGAGCAUCA
Target sequence (chain): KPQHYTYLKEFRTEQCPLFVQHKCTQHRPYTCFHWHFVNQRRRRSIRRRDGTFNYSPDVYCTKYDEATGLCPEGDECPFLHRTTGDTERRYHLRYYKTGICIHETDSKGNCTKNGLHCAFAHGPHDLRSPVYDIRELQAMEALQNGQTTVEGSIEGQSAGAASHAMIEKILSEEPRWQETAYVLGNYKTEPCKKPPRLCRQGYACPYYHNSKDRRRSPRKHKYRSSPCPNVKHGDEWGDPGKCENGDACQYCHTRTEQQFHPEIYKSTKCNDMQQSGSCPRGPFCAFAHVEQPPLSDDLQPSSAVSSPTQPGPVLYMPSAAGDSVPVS
Oligonucleotide	bound/input enrichment
UCUUGACUUUAUUUCGUCAAUGUUGAGAAAAACUUUUUAUAUCUCAAAAUAUCGUUAGAAAAGGAAGUCCCAGCGCUCGGAGGCUUAGCUGACAAAGAAGGGGGUUGCGUGGCUGCGAGU	0.458 ratio
GGGGUCCUCUAUCAUAUUUCAAAUCCUAAUGGAGACAAAACAAAAGUGAUGGUCAGUAUUUCUUUGAAAUUCUACAAGGAACUUCAGGCACAUGGUGCUGAUGAGUUAUUAAAGAGGGUG	0.416 ratio
GGUGAGCUUCAUUUUCUCCAAAUUGGAGGAACCUGUGAUGAUAUUGAUGAAGCUGAUAUACUAGUGGAUGGAUCUCUUUCUAAAGGAAUAGAACCAUCUUCAGAAGGUUCCAAACCUUUA	0.0695 ratio
GACACAAAAAACAAGGAUGGCGUGCUGGUGGAUGAAUUUGGACUGCCGCAGAUUCCCGCUUCGUAGACUUACAACAUUCCAGCACGUGAUGUGAAACAACAAGAGAAGUAUUCUGGGACU	0.848 ratio
GGCUAGCCCCAGACCCAAAGAAUAAGAGAUAGCGAAGUUACUACAGACGUGGUCAGGGACAUUAGAAGGAGGCAGACUGCUACAGUCAGAGGCCAGGCAGUACAUCUCAGAGACAAGCUG	0.646 ratio
AAAUAUGGCCCCAUUGCUGAUGUGUCUAUUGUAUAUGACCAGCAAUCUAGACGUUCAAGAGGAUUUGCCUUUGUAUAUUUUGAAAAUGUAGACGAUGCCAAGGAAGCUAAAGAACGUGCC	0.74 ratio
ACGAAGAUGAUAAAGACUGCAAAGAAGAGGAGAACAAAAGCAGCUCUGAGGGCGGAGACGCUGGCAAUGACACGAGAAACACGACUGCAGACUUGCAGAAAGCCGGUGAAGGGACCUAAC	0.216 ratio
GAAAUUAUUAAAAACAAGGGGGGUGGGUAAUAAAUGUAUAUAACAUUAAAUAAUGUAACGUAGGUGUAGAUUCCCAAAUGCAUUUGGAUGUACAGAUCGACUACAGAGUACUUUUUUCUU	1.29 ratio

Study 3 — method: RNA Bind-n-Seq; form: RNA; sample: in vitro; concentration: 365 nM; baseline: no-protein control; reading: higher = stronger binding
Target: RNA binding protein fox-1 homolog 2, RRM domain, GST-SBP tag (RBFOX2, Homo sapiens, UniProt O43251-10, residues 100-194)
Setting: natural RNA segment, single round, ends assumed
Constant ends, left off below: GGGAGUUCUACAGUCCGACGAUC … UGGAAUUCUCGGGUGCCAA
Residues (chain): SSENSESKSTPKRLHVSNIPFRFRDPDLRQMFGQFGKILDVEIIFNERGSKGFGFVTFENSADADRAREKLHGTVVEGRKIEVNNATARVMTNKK
Oligonucleotide	RBNS enrichment (R)
UGAGUAUCCUUCUCCUGUCCUGCAACAACAUCCAUAUCCAGCCAGGUGGCCCUGUCUCAAGCACCUCUCUGGCCCUCUGGUGGCCCUUGCUUAAUAAAGAUUCUCCGAGC	0.567
GCCUGCAGCAACAGAACACUUGACCUUAAAAGUCUCUUCUGGUCUUUGGAUUAGAAAAGGCUUAUGUUAGCAACCUCAGAGACUUGAGCCCUGCUAAGUGACUGACCACU	0.567
AUCCCUCCUCUGCCAAUAUCGCUACAACUCCUGCCUCCAGCACUAGGCUAUAACUUUGGAGUGAUAAGUCCUAUGGCUUUCUACAGUAGAGAACCACCCAAGGGUGUCGA	0.49
CAUAUUUGAACUGCCAUCUAUUAGCAUAUUCAUCACACUACAUAGACAUAGUUUUACUGCCCCCUUUUUAGCUCAUGGGAUUUCCUGUUUACAGGUAGCAAUAGUCAAUU	0.461
AUUAAGAUGUUUUCACCACAUUGUAUUACAGAGACAGCCAAUAAAUCUACUAUUUGAUUUCAAUAUGUUUUGGAGGCUUAUUAUUGUUCCAGUGUGAAGGAUGAGGAGAG	0.282
AGCAUAUGUAGGAUAUUCAAUUUGCAGAUACUUUUGUUGGUUAUGUUGGUUUAUAAUAGACAAGUUUUAUGGUCAUAUGCAAUUAUUCCAUUAUCUUUUUGGACACAGUG	0.554
ACUUCCCCACAAUGCUGCAUUACCGAUAGGACCUAGUGUUUACUACAGUGUAAAUGUUUAUAUGGACACAGAACAGCAUCACUAAAUAAAGCCUUUCUACUUGUGGGUGC	0.813
AAUGUGAUAAGGACUUUAAAAAAGAAGCAUGUAUGUUUUUUACUGUUUGUAAGAAGUACUUUCGUUAAUCUUGCUGCUUAUGUGUCAAUUUAGUGGAAAAGAAAUCCCUU	10.1

Study 4 — method: protein-binding microarray; form: double-stranded DNA, one strand shown; sample: in vitro; concentration: 250 nM; setting: 60-bp whole probe; with: salmon DNA 0.4 mg/ml; baseline: random background probes; reading: higher = stronger binding; constant ends, left off below: GCCTAGCAC … GTCTTGATTCGCTTGACGCTGCTG
Target: Interferon regulatory factor 7, full length, phosphomimetic (IRF7, Homo sapiens, UniProt Q92985, residues 1-503, S101K/S471D/S472D/S475D/S476D/S477D/S483D/S484D/S487D)
Construct (chain): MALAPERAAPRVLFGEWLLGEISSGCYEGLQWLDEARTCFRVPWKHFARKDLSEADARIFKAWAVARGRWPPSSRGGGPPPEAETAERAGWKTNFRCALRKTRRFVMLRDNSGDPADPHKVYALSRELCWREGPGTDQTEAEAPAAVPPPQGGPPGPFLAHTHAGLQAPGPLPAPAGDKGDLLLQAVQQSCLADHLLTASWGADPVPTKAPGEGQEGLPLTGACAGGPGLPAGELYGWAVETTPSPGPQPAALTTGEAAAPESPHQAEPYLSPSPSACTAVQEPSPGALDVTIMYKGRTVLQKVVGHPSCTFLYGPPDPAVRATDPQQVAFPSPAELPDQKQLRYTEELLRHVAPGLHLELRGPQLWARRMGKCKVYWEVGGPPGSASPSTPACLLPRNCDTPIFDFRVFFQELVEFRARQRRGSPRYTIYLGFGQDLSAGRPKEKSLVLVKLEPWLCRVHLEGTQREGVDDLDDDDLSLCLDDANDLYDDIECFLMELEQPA
Oligonucleotide	log fluorescence
TTAGGACAGGGTCTCGGTTAGTGCTAG	1.16 z-score
TTAGGTTTCGACAATCGGTTAGTGCTA	2.98 z-score
TTAGATTTCAGATTCGATTAGTGCTAG	3.9 z-score
GACGATTTCAGACTGGAAACGTGCTAG	0.136 z-score
GACGGACTGGACACTGGGCACGTGCTA	-1.03 z-score
GACGGTTTCGGGTTTCGGGTCGTGCTA	13 z-score
GACGGACTGGGTATCGGAACGTGCTAG	0.0449 z-score
GACGATCTCAGTCTGGAGACGTGCTAG	-0.357 z-score
TTAGGTATCGGGTTTCGGTTTGTGCTA	11.5 z-score
TCACCCCTCTCATTCCAACTGTGCTAG	0.191 z-score
TTAGATATCAGCCTGGATTAGTGCTAG	-0.0206 z-score
CAACCTTTGTTTTTTTCTATGTGCTAG	0.463 z-score
TTAGGTTTCCTTATCCTTAAGTGCTAG	3.57 z-score
TAAGAACTGAGTCTCGATTAGTGCTAG	1.73 z-score
TTAGACATCGGGACTGGATTAGTGCTA	-0.321 z-score
TTAGGACTGGGGTATCGGTCAGTGCTA	-0.554 z-score
GACGGTCTCCTTCTCCTGAAGTGCTAG	0.108 z-score
GCCGATATCGGGTTTCGAGACGTGCTA	3.38 z-score
TACCCTTTGAAAGTTGTTTTAGTGCTA	0.163 z-score
